Measured values from different studies.
Lines come from different studies, so protocols differ. ± marks the error that the study gave.

Compound | system | conditions | half-life
COc1cc2c(cc1OC)CN(CCc1ccc(NC(=O)c3cccc4c(=O)c5cccc(OC)c5[nH]c34)cc1)CC2 | CD-1 mouse, male, lung | intraperitoneal, 1 mg/kg | 7.97 h
CCCCCCCC(=O)N[C@@H](CCCCN)C(=O)N[C@@H](CCCCN)C(=O)N[C@@H](C)C(=O)N[C@@H](CC(C)C)C(=O)N[C@@H](CCCCN)C(=O)N[C@@H](CC(C)C)C(=O)N[C@@H](C)C(=O)N[C@@H](CCCCN)C(=O)N[C@@H](CCCCN)C(=O)N1CCC[C@H]1C(=O)N[C@@H](CC(C)C)C(=O)N[C@@H](CCCCN)C(=O)N[C@@H](CC(C)C)C(=O)N[C@@H](CC(C)C)C(=O)N[C@@H](CCCCN)C(N)=O | mouse ICR CD1 female, whole blood | intravenous bolus, 10 mg/kg | 0.12 ± 0.06 h
Nc1ccc2cc3ccc(N)cc3nc2c1 | male CD-1 mouse, plasma | intravenous, 15 mg/kg | 1.7 h
Cc1ccccc1C(=O)NN=Cc1ccc(O)c(Br)c1 | C3H/HeN mouse IN model, plasma | intravenous, 0.8 mg/kg | 1.29 h
Cc1ncc2n1-c1ccc(Cl)cc1C(c1ccccc1F)=NC2 | wild-type mouse, plasma | intravenous, 0.3 mg/kg, 14-day CMC pretreatment | 0.297 ± 0.0183 h
CC/C(=C(\c1ccccc1)c1ccc(OCCN(C)C)cc1)c1ccccc1 | CD-1 mouse, male, lung | intraperitoneal, 30 mg/kg | 7.17 h
Clc1nc[n]([Au][PH](c2ccccc2)(c2ccccc2)c2ccccc2)c1Cl | NCG mouse, plasma | intraperitoneal, 10 mg/kg | ~62.4 h
C[C@H](O)c1cnc(NS(=O)(=O)c2ccc(C(F)(F)F)c(Cl)c2)nc1 | hepatocytes, HSD17B13 knockout with AAV control, C57BL/6J mouse, male | 1 µM | > 12.5 h
N#C[C@@]1(n2ccc(N)nc2=O)O[C@H](CO)[C@@H](O)[C@H]1O | CD-1 mouse | oral, 30 mg/kg | 1.75 h
COc1cccc2c1CCCC2CCCN1CCN(C2CCCCC2)CC1 (stereo not drawn) | CD-1 mouse, male, plasma | intraperitoneal, 3 mg/kg | 2.82 h
CC(c1cncnc1)n1c(=S)[nH]c2ccc(Cl)cc2c1=O (stereo not drawn) | mouse, plasma | intravenous, dose not given | 1.2 h
CN(C)C1(CNC(=O)c2ccc3c(c2)CCN3C(=O)c2ccccc2)CCOCC1 | ICR mouse, male, plasma | intraperitoneal, 30 mg/kg | 1.08 ± 0.05 h

For quick reference, copied from above:
Compound | system | conditions | half-life
CCCCCCCC(=O)N[C@@H](CCCCN)C(=O)N[C@@H](CCCCN)C(=O)N[C@@H](C)C(=O)N[C@@H](CC(C)C)C(=O)N[C@@H](CCCCN)C(=O)N[C@@H](CC(C)C)C(=O)N[C@@H](C)C(=O)N[C@@H](CCCCN)C(=O)N[C@@H](CCCCN)C(=O)N1CCC[C@H]1C(=O)N[C@@H](CC(C)C)C(=O)N[C@@H](CCCCN)C(=O)N[C@@H](CC(C)C)C(=O)N[C@@H](CC(C)C)C(=O)N[C@@H](CCCCN)C(N)=O | mouse ICR CD1 female, whole blood | intravenous bolus, 10 mg/kg | 0.12 ± 0.06 h
